Measurements pooled from the literature.
Every numbered part comes from another study and shows a few of its results, in no order.
UniProt Q9NRP7, sequence (whole entry, looked up): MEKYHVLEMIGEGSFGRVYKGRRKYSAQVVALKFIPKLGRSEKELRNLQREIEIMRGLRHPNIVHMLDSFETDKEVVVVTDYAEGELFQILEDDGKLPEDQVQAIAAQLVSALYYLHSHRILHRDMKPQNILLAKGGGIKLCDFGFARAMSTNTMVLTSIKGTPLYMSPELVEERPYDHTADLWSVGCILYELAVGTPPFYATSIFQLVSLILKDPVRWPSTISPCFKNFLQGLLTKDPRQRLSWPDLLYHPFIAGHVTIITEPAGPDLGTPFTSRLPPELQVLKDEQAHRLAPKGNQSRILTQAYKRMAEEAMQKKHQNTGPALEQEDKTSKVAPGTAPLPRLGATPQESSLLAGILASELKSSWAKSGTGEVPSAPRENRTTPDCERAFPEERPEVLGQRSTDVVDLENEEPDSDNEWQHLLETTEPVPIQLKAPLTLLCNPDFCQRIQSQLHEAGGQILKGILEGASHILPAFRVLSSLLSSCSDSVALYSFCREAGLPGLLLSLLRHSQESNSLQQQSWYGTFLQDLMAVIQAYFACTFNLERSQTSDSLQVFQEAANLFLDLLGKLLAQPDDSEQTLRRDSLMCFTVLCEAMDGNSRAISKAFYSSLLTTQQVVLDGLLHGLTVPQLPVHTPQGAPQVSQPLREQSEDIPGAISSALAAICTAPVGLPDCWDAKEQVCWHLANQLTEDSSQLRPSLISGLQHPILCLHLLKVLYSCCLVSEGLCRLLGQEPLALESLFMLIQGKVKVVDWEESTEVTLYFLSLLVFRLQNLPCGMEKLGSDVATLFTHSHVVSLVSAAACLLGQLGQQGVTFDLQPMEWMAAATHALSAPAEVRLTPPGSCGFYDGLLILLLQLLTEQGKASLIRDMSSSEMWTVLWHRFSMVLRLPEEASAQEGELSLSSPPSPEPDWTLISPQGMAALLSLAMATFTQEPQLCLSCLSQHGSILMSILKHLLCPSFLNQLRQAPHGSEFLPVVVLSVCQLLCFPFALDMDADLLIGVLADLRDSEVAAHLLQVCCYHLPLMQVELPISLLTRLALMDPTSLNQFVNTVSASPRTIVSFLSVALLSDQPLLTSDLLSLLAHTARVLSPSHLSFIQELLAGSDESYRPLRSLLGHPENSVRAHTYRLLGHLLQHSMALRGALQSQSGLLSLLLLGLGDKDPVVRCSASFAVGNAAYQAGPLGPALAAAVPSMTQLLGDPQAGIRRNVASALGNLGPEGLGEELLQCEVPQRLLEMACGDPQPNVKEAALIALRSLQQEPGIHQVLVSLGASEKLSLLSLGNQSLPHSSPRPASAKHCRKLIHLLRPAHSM
UniProt Q13976, sequence (whole entry, looked up): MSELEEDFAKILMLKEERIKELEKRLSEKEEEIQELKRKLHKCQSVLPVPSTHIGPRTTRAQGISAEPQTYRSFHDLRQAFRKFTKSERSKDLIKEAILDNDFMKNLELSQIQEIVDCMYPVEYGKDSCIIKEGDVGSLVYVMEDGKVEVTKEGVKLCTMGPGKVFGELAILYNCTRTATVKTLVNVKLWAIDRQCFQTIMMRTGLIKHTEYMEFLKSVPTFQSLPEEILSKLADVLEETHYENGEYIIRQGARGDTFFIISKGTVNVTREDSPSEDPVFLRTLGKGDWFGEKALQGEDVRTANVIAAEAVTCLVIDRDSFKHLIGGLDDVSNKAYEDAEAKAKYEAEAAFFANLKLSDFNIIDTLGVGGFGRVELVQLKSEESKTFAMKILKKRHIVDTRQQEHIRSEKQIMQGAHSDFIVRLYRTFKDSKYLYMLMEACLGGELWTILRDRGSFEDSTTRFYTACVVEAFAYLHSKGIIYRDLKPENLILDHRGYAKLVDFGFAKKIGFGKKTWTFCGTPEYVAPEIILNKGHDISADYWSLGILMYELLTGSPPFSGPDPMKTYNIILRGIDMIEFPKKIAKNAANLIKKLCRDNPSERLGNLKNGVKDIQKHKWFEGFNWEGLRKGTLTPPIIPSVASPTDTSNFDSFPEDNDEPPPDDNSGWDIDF
UniProt P08631, sequence (whole entry, looked up): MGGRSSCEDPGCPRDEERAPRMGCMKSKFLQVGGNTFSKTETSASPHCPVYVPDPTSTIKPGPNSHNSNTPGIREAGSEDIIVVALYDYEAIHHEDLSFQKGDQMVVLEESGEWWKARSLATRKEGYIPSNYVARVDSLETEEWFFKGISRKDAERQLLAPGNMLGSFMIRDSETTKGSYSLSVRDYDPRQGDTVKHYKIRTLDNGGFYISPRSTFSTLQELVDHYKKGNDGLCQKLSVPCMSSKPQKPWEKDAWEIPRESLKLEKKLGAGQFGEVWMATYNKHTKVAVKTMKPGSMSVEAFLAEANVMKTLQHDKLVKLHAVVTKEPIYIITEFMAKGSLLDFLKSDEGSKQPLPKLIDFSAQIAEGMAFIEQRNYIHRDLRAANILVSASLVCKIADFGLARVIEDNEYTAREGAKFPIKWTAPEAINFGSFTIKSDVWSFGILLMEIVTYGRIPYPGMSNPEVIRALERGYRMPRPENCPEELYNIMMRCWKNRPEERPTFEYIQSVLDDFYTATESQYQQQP
UniProt Q9H1R3, sequence (whole entry, looked up): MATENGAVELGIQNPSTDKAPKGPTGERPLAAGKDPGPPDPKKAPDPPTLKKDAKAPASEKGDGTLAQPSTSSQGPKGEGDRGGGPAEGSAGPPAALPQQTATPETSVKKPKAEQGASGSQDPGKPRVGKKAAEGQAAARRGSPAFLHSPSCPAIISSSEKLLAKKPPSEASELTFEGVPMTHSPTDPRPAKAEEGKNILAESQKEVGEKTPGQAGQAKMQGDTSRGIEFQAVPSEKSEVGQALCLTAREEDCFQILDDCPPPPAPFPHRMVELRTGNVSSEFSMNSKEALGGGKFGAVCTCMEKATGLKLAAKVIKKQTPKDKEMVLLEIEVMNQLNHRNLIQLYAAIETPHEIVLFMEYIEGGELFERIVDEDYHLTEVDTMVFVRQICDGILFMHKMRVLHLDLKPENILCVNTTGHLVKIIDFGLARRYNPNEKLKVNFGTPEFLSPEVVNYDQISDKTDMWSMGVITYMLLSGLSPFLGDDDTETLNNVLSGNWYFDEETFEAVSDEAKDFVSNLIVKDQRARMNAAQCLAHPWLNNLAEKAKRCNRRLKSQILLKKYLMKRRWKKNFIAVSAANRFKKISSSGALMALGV
UniProt P10721, sequence (whole entry, unmodified, looked up): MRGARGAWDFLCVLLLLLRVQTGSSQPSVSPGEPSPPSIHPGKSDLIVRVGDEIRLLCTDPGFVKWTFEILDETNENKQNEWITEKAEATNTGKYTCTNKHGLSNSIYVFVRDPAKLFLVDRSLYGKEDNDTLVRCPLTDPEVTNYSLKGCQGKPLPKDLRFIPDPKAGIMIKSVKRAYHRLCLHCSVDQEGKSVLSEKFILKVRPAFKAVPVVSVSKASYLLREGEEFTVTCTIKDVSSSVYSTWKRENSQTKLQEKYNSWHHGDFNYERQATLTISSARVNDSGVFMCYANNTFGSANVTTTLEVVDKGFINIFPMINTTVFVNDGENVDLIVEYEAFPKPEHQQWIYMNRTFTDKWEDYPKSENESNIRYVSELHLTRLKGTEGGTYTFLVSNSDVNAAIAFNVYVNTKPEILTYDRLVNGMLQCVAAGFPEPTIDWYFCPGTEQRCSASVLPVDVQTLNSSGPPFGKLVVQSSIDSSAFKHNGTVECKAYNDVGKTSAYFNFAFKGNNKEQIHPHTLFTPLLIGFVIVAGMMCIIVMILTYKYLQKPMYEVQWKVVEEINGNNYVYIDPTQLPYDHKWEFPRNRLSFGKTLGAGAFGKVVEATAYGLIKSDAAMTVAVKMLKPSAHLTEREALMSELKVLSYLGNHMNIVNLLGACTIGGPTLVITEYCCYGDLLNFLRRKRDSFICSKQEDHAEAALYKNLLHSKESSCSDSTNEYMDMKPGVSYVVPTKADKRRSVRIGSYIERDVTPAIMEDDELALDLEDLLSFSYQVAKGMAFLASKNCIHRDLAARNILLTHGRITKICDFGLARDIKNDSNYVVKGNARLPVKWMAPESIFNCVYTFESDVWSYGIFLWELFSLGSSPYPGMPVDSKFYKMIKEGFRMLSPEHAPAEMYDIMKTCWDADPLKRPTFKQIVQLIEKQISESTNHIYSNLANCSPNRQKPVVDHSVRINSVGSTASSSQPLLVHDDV
UniProt P11802, sequence (whole entry, looked up): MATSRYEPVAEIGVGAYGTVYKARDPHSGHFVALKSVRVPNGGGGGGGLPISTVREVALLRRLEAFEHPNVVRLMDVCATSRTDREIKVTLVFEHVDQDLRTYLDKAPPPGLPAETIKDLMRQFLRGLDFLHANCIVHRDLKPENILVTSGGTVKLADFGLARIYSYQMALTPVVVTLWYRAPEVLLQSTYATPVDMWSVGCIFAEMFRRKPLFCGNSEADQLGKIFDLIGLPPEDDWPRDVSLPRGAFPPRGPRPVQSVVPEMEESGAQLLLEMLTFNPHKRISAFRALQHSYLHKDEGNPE

Sample 1 — effect on: enzyme activity; mode: inhibitor; concentration: 0.5 µM; relative to: control; endpoint: remaining activity
Target: Protein kinase C beta type, isoform beta-II (PRKCB, Homo sapiens, UniProt P05771)
UniProt P05771, sequence (whole entry, looked up): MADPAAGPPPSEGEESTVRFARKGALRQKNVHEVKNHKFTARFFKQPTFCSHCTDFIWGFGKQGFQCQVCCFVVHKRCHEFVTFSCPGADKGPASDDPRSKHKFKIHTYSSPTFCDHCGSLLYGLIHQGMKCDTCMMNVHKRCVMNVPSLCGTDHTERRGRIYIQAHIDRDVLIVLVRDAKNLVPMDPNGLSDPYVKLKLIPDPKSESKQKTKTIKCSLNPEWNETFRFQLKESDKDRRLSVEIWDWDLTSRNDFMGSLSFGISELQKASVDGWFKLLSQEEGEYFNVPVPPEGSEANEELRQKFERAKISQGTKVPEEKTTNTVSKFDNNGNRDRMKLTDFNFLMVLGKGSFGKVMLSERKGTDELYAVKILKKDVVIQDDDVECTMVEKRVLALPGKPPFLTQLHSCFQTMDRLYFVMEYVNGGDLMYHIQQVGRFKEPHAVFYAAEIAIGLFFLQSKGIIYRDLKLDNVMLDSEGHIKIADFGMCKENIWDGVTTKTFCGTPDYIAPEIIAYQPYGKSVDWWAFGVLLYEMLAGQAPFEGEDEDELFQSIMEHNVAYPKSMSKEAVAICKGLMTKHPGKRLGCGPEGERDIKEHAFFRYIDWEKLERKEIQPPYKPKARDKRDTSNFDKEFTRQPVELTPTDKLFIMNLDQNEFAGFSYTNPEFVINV
COc1cc2ncnc(Nc3cccc(Cl)c3)c2cc1OC: 95.5%
Cc1cc2ncc(-c3ccccc3)nc2cc1C: 124%
N#Cc1c(NC(=O)c2cccc3ccccc23)sc2c1CCCC2: 104%
Cn1nc2c3c(cccc31)C(=O)c1ccccc1-2: 97.8%
COc1cc2ncnc(Nc3ccc(O)c(Br)c3)c2cc1OC: 98.7%
CCN(CC)CCNC(=O)c1c(C)[nH]c(/C=C2\C(=O)Nc3ccc(Cl)cc32)c1C: 110%
C[C@@H]1CCN(C(=O)CC#N)C[C@@H]1N(C)c1ncnc2[nH]ccc12: 88.1%
c1ccc(-c2cnc(Nc3ccc(OCCN4CCCC4)cc3)s2)cc1: 104%
Nc1cccc(-c2cc3c(Oc4cccc(O)c4)ncnc3[nH]2)c1: 97.5%
Cc1cn(-c2cc(NC(=O)c3ccc(C)c(Nc4nccc(-c5cccnc5)n4)c3)cc(C(F)(F)F)c2)cn1: 96.3%
CN(C)C[C@H]1CCn2c(c(C3=C(c4cn(C)c5ccccc45)C(=O)NC3=O)c3ccccc32)C1: 2.29%
CCN(CC)CCNC(=O)c1c(C)[nH]c(/C=C2\C(=O)Nc3ccc(F)cc32)c1C: 104%
Cc1nc2cc3nc(-c4cccs4)cnc3cc2n1C: 121%
O=c1cc(-c2cccc3c2Sc2ccccc2S3)oc(N2CCOCC2)c1: 105%
COc1cc2c(cc1OC)-c1[nH]nc(Nc3cccc(F)c3)c1C2: 103%
O=C1Nc2ccc(Cl)cc2C1=Cc1cc(Cl)c(O)c(Cl)c1: 97.5%
c1ccc(-c2[nH]ncc2-c2ccnc3ccccc23)nc1: 92.1%
O=C1c2ccccc2-c2n[nH]c3cccc1c23: 99.3%
CCOc1nc(NC(=O)Cc2cc(OC)ccc2OC)cc(N)c1C#N: 105%
O=C(NC(NC(=S)Nc1ccc(F)c([N+](=O)[O-])c1)C(Cl)(Cl)Cl)C(c1ccccc1)c1ccccc1 (stereo not shown): 107%
O=C(Nc1cccc(Nc2nccc(Nc3cccc(C(F)(F)F)c3)n2)c1)C1CC1: 98%
N#C/C(=C\c1ccc(O)c(O)c1)C(=O)NCc1ccccc1: 99.8%
CCN(CC)C(=O)c1ccc(Nc2nc(OCC3CCCCC3)c3[nH]cnc3n2)cc1: 95%
Ic1cccc(CSc2nnc(-c3ccncc3)o2)c1: 91.2%

Sample 2 — Compound: O=C(Nc1ccccc1)Nc1cccc(Oc2ccc3nccn3n2)c1; concentration: 1 µM; endpoint: remaining binding
KIT (Homo sapiens, UniProt P10721, V559D/V654A); competitive binding panel; relative to: vehicle: 18%
PHKG1 (Homo sapiens, UniProt Q16816); competitive binding panel; relative to: vehicle: 100%
TXK (Homo sapiens, UniProt P42681); competitive binding panel; relative to: vehicle: 100%
CLK3 (Homo sapiens, UniProt P49761); competitive binding panel; relative to: vehicle: 100%
EPHA3 (Homo sapiens, UniProt P29320); competitive binding panel; relative to: vehicle: 66%
CDK4 (Homo sapiens, UniProt P11802); competitive binding scan; added: cyclin D3: 100%
MARK4 (Homo sapiens, UniProt Q96L34); competitive binding panel; relative to: vehicle: 91%
SNRK (Homo sapiens, UniProt Q9NRH2); competitive binding panel; relative to: vehicle: 100%
PRKG1 (Homo sapiens, UniProt Q13976); competitive binding panel; relative to: vehicle: 96%
ROCK2 (Homo sapiens, UniProt O75116); competitive binding panel; relative to: vehicle: 100%

Sample 3 — cell line: Huh-7; concentration: 10 µM; time: 24 h; endpoint: viability
CCn1cc(C(=O)O)c(=O)c2ccc(C)nc21: 97.9%
NS(=O)(=O)c1cc2c(cc1Cl)NCNS2(=O)=O: 99.8%
CC(=O)O[C@]1(C(C)=O)CC[C@H]2[C@@H]3C=C(Cl)C4=CC(=O)[C@@H]5C[C@@H]5[C@]4(C)[C@H]3CC[C@@]21C: 97.5%
O=C1CCc2cc(OCCCCc3nnnn3C3CCCCC3)ccc2N1: 94.8%
CCN(CC)CCNC(=O)c1cc(Cl)c(N)cc1OC: 97.2%
Cc1cc(C(C)(C)CC(C)(C)C)ccc1OCCOCC[N+](C)(C)Cc1ccccc1: 85.5%
CC[C@H]1OC(=O)[C@H](C)[C@@H](O[C@H]2C[C@@](C)(OC)[C@@H](O)[C@H](C)O2)[C@H](C)[C@@H](O[C@@H]2O[C@H](C)C[C@H](N(C)C)[C@H]2O)[C@](C)(O)C[C@@H](C)C(=O)[C@H](C)[C@@H](O)[C@]1(C)O: 99.2%
Nc1ccc(C(=O)O)c(O)c1: 95.9%
CC(C(=O)O)c1ccc(-c2ccccc2)c(F)c1 (stereo not shown): 98.8%
CN(C)CCN(Cc1ccccc1)c1ccccn1: 89.8%
CCN(CCCc1ccccc1)CCCc1ccccc1: 96.6%
COc1cc2nc(N3CCN(C(=O)C4CCCO4)CC3)nc(N)c2cc1OC (stereo not shown): 95.6%

Sample 4 — concentration: 1 µM; endpoint: remaining binding
Structure (SMILES): CN(C)C(=O)Cn1cc(-c2nc(C3(c4ccc(-c5cnc(N)nc5)cc4)CC3)no2)cn1
SRC (Homo sapiens, UniProt P12931); cell-free assay, competition with immobilised ligand: 84%
MAP2K1 (Homo sapiens, UniProt Q02750); cell-free assay, competition with immobilised ligand: 82%
MAP4K2 (Homo sapiens, UniProt Q12851); cell-free assay, competition with immobilised ligand: 89%
CDK19 (Homo sapiens, UniProt Q9BWU1); competition binding: 93%
STK36 (Homo sapiens, UniProt Q9NRP7); cell-free assay, competition with immobilised ligand: 75%
SBK1 (Homo sapiens, UniProt Q52WX2); cell-free assay, competition with immobilised ligand: 83%
HCK (Homo sapiens, UniProt P08631); cell-free assay, competition with immobilised ligand: 100%
STK10 (Homo sapiens, UniProt O94804); cell-free assay, competition with immobilised ligand: 100%
DMPK (Homo sapiens, UniProt Q09013); cell-free assay, competition with immobilised ligand: 82%
MKNK2 (Homo sapiens, UniProt Q9HBH9); cell-free assay, competition with immobilised ligand: 94%
WNK3 (Homo sapiens, UniProt Q9BYP7); cell-free assay, competition with immobilised ligand: 87%
MAP2K4 (Homo sapiens, UniProt P45985); cell-free assay, competition with immobilised ligand: 93%
NEK5 (Homo sapiens, UniProt Q6P3R8); cell-free assay, competition with immobilised ligand: 89%
MYLK2 (Homo sapiens, UniProt Q9H1R3); cell-free assay, competition with immobilised ligand: 90%
CDK13 (Homo sapiens, UniProt Q14004); cell-free assay, competition with immobilised ligand: 91%
FLT3 (Homo sapiens, UniProt P36888, D835H); cell-free assay, competition with immobilised ligand: 93%
AKT2 (Homo sapiens, UniProt P31751); cell-free assay, competition with immobilised ligand: 100%
MAPK11 (Homo sapiens, UniProt Q15759); cell-free assay, competition with immobilised ligand: 86%

Some of these lines once more (sample 1):
COc1cc2ncnc(Nc3cccc(Cl)c3)c2cc1OC: 95.5%
Cc1cc2ncc(-c3ccccc3)nc2cc1C: 124%
c1ccc(-c2[nH]ncc2-c2ccnc3ccccc23)nc1: 92.1%
Cn1nc2c3c(cccc31)C(=O)c1ccccc1-2: 97.8%
